Published values pooled from the literature.
Each line is one published result; not all experiments were run side by side. Several values in a cell are separate wells, animals, samples, runs or records. ± gives the spread as reported.

CSCC[C@H](NC(=O)[C@H](CCCNC(=N)N)NC(=O)[C@H](CCCNC(=N)N)NC(=O)[C@H](CCCCN)NC(=O)[C@H](C)NC(=O)[C@H](CCCNC(=N)N)NC(=O)CNC(=O)[C@@H](NC(=O)CCNC(=O)c1ccc2c(c1)C(=O)OC21c2ccc(O)cc2Oc2cc(O)ccc21)[C@@H](C)O)C(=O)N[C@@H](CSCB(O)O)C(=O)N[C@@H](Cc1ccc(O)cc1)C(=O)N[C@@H](CSCB(O)O)C(=O)N[C@@H](CCCNC(=N)N)C(=O)N[C@@H](CCCNC(=N)N)C(N)=O — remaining peptide (HPLC peak area; 50% human serum; 100 µM, 24 h, pH 7.4, 37 °C; reference: 0 h): 28% and 28.6% and 25.5%
C/C(=C\CCP(=O)(OCOC(=O)c1ccccc1)Oc1ccc(C(C)C)cc1)CO (stereo not drawn) — remaining compound (50% CD1 mouse plasma; 100 µM, 2 h, pH 7.5, 37 °C): 0%
CC[C@@H](C)[C@@H](NC(=O)[C@@H](Cc1ccc(O)cc1)NC(=O)[C@H]1CCCN1C(=O)[C@@H](CCCNC(=N)N)NC(=O)[C@H](N)Cc1c[nH]cn1)C(=O)N[C@H](C)C(=O)N[C@H](Cc1c[nH]cn1)C(=O)N[C@H](CCCNC(=N)N)C(=O)N[C@@H](C(=O)N[C@H](Cc1ccc(O)cc1)C(=O)N[C@H](CO)C(=O)N[C@H](Cc1ccccc1)C(N)=O)C(C)C — remaining compound (10% human serum; 4 h): 107% and 106% and 104%
CC(C)C[C@@H]1NC(=O)[C@H](CCCCN)NC(=O)[C@H](CC(N)=O)NC(=O)[C@H](CCCNC(=N)N)NC(=O)[C@H]([C@@H](C)O)NC(=O)[C@@H]2CSSC[C@@H]3NC(=O)[C@H]([C@@H](C)O)NC(=O)CNC(=O)CNC(=O)[C@H](C(C)C)NC(=O)[C@@H]4CSSC[C@H](NC(=O)[C@H]([C@@H](C)O)NC(=O)[C@H](CSSC[C@H](NC(=O)[C@H](C(C)C)NC(=O)[C@@H]5CCCN5C1=O)C(=O)NCC(=O)N[C@@H](CCC(=O)O)C(=O)N[C@@H]([C@@H](C)O)C(=O)N4)NC(=O)CNC(=O)[C@@H]1CCCN1C(=O)[C@H]([C@@H](C)O)NC(=O)[C@H](CC(N)=O)NC3=O)C(=O)N[C@@H](CO)C(=O)N[C@@H](Cc1c[nH]c3ccccc13)C(=O)N1CCC[C@H]1C(=O)N[C@@H](C(C)C)C(=O)N2 — remaining peptide (HPLC; ammonium bicarbonate; 180 µM, 7 days, pH 9.0, 25 °C, deamidation stability): 99.3 ± 0.9%
CCCCCCCCCCCCCCOC(=O)ONc1ccn([C@@H]2O[C@H](CO)[C@@H](O)[C@H]2O)c(=O)n1 — remaining parent compound (pooled human plasma; 2 µM, 30 min, 37 °C): 17%
CSCC[C@H](NC(=O)[C@H](CCCCN)NC(=O)[C@H](CCCNC(=N)N)NC(=O)[C@H](CO)NC(=O)[C@H](Cc1c[nH]c2ccccc12)NC(=O)[C@H](CCCNC(=N)N)NC(=O)[C@H](CC(C)C)NC(=O)[C@H](N)Cc1ccccc1)C(=O)N1CCC[C@H]1C(=O)N[C@@H](CS)C(=O)N[C@H](C(=O)N[C@@H](CO)C(N)=O)C(C)C — remaining activity (12G5 competition, SUP-T1 cells; human plasma; 20 µM, 2 h, 37 °C): 66 ± 6%
CC(C)C[C@@H]1NC(=O)CNC(=O)[C@H](CC(N)=O)NC(=O)[C@H](CCCNC(=N)N)NC(=O)[C@H]([C@@H](C)O)NC(=O)[C@@H]2CSSC[C@@H]3NC(=O)[C@H]([C@@H](C)O)NC(=O)CNC(=O)CNC(=O)[C@H](C(C)C)NC(=O)[C@@H]4CSSC[C@H](NC(=O)[C@H]([C@@H](C)O)NC(=O)[C@H](CSSC[C@H](NC(=O)[C@H](C(C)C)NC(=O)[C@@H]5CCCN5C1=O)C(=O)NCC(=O)N[C@@H](CCC(=O)O)C(=O)N[C@@H]([C@@H](C)O)C(=O)N4)NC(=O)CNC(=O)[C@@H]1CCCN1C(=O)[C@H]([C@@H](C)O)NC(=O)[C@H](CC(N)=O)NC3=O)C(=O)N[C@@H](CCCCN)C(=O)N[C@@H](Cc1c[nH]c3ccccc13)C(=O)N1CCC[C@H]1C(=O)N[C@@H](C(C)C)C(=O)N2 — remaining peptide (HPLC; ammonium bicarbonate; 180 µM, 14 days, pH 9.0, 25 °C, deamidation stability): 79.6 ± 1%
CC[C@H](C)[C@H](NC(C)=O)C(=O)N[C@@H](CC(C)C)C(=O)N[C@@H](CCCNC(=N)N)C(=O)N[C@@H](Cc1c[nH]c2ccccc12)C(=O)N[C@@H](CO)C(=O)N[C@@H](CCCNC(=N)N)C(=O)N[C@@H](CCCCN)C(=O)N[C@@H](CC(C)C)C(=O)N1CCC[C@H]1C(=O)N[C@@H](CS)C(=O)N[C@H](C(=O)N[C@@H](CO)C(N)=O)C(C)C — remaining activity (12G5 competition, SUP-T1 cells; human plasma; concentration not given, 8 h): 67 ± 6%
CCCCN1CCC(COC(=O)c2ccc(N)c(O[11CH3])c2)CC1 — remaining parent compound (rhesus monkey whole blood; 30 min): 73.2%
CC(C)C[C@@H]1NC(=O)CNC(=O)[C@H](CCCCN)NC(=O)[C@H](CCCNC(=N)N)NC(=O)[C@H]([C@@H](C)O)NC(=O)[C@@H]2CSSC[C@@H]3NC(=O)[C@H]([C@@H](C)O)NC(=O)CNC(=O)CNC(=O)[C@H](C(C)C)NC(=O)[C@@H]4CSSC[C@H](NC(=O)[C@H](CCCCN)NC(=O)[C@H](CSSC[C@H](NC(=O)[C@H](C(C)C)NC(=O)[C@@H]5CCCN5C1=O)C(=O)NCC(=O)N[C@@H](CCC(=O)O)C(=O)N[C@@H]([C@@H](C)O)C(=O)N4)NC(=O)CNC(=O)[C@@H]1CCCN1C(=O)[C@H]([C@@H](C)O)NC(=O)[C@H](CC(N)=O)NC3=O)C(=O)N[C@@H](CO)C(=O)N[C@@H](Cc1c[nH]c3ccccc13)C(=O)N1CCC[C@H]1C(=O)N[C@@H](C(C)C)C(=O)N2 — remaining peptide (HPLC; ammonium bicarbonate 0.1 M; 180 µM, 14 days, pH 9.0, 37 °C, deamidation stability): 100%
CC[C@@H](C)[C@@H](NC(=O)[C@@H](Cc1ccc(O)cc1)NC(=O)[C@H]1CCCN1C(=O)[C@@H](CCCNC(=N)N)NC(=O)[C@H](N)Cc1c[nH]cn1)C(=O)N[C@H](C)C(=O)N[C@H](Cc1c[nH]cn1)C(=O)N[C@H](CCCNC(=N)N)C(=O)N[C@H](CCCCNC(=O)c1cccc(S(=O)(=O)F)c1)C(=O)N[C@H](Cc1ccc(O)cc1)C(=O)N[C@H](CO)C(=O)N[C@H](Cc1ccccc1)C(N)=O — remaining compound (10% human serum; 36 h): 110% and 108% and 109%
CC(C)C[C@@H]1NC(=O)CNC(=O)[C@H](CC(N)=O)NC(=O)[C@H](CCCCN)NC(=O)[C@H]([C@@H](C)O)NC(=O)[C@@H]2CSSC[C@@H]3NC(=O)[C@H]([C@@H](C)O)NC(=O)CNC(=O)CNC(=O)[C@H](C(C)C)NC(=O)[C@@H]4CSSC[C@H](NC(=O)[C@H]([C@@H](C)O)NC(=O)[C@H](CSSC[C@H](NC(=O)[C@H](C(C)C)NC(=O)[C@@H]5CCCN5C1=O)C(=O)NCC(=O)N[C@@H](CCC(=O)O)C(=O)N[C@@H]([C@@H](C)O)C(=O)N4)NC(=O)CNC(=O)[C@@H]1CCCN1C(=O)[C@H]([C@@H](C)O)NC(=O)[C@H](CC(N)=O)NC3=O)C(=O)N[C@@H](CO)C(=O)N[C@@H](Cc1c[nH]c3ccccc13)C(=O)N1CCC[C@H]1C(=O)N[C@@H](C(C)C)C(=O)N2 — remaining peptide (HPLC; ammonium bicarbonate 0.1 M; 180 µM, 7 days, pH 9.0, 37 °C, deamidation stability): 79 ± 2%
O=C/C=C/c1ccccc1 — remaining concentration (FaSSGF; 2 h, pH 1.65, 37 °C): 270 ± 20 µg/mL
CSCC[C@H](NC(=O)[C@H](CCCCN)NC(=O)[C@H](CCCNC(=N)N)NC(=O)[C@H](CO)NC(=O)[C@H](Cc1c[nH]c2ccccc12)NC(=O)[C@H](CCCNC(=N)N)NC(=O)[C@H](CC(C)C)NC(=O)[C@H](CO)NC(C)=O)C(=O)N1CCC[C@H]1C(=O)N[C@@H](CS)C(=O)N[C@H](C(=O)N[C@@H](CO)C(N)=O)C(C)C — remaining activity (12G5 competition, SUP-T1 cells; human plasma; 20 µM, 8 h, 37 °C): 76 ± 11%
CC(C)C[C@@H]1NC(=O)[C@H](CC(N)=O)NC(=O)[C@H](CCCNC(=N)N)NC(=O)[C@H]([C@@H](C)O)NC(=O)[C@@H]2CSSC[C@@H]3NC(=O)[C@H]([C@@H](C)O)NC(=O)CNC(=O)CNC(=O)[C@H](C(C)C)NC(=O)[C@@H]4CSSC[C@H](NC(=O)[C@H]([C@@H](C)O)NC(=O)[C@H](CSSC[C@H](NC(=O)[C@H](C(C)C)NC(=O)[C@@H]5CCCN5C(=O)[C@H](CC(C)C)NC1=O)C(=O)NCC(=O)N[C@@H](CCC(=O)O)C(=O)N[C@@H]([C@@H](C)O)C(=O)N4)NC(=O)CNC(=O)[C@@H]1CCCN1C(=O)[C@H]([C@@H](C)O)NC(=O)[C@H](CC(N)=O)NC3=O)C(=O)N[C@@H](CO)C(=O)N[C@@H](Cc1c[nH]c3ccccc13)C(=O)N1CCC[C@H]1C(=O)N[C@@H](C(C)C)C(=O)N2 — remaining peptide (HPLC; ammonium bicarbonate; 180 µM, 7 days, pH 9.0, 25 °C, deamidation stability): 99.4 ± 0.9%

Repeated from above:
CC(C)C[C@@H]1NC(=O)[C@H](CC(N)=O)NC(=O)[C@H](CCCNC(=N)N)NC(=O)[C@H]([C@@H](C)O)NC(=O)[C@@H]2CSSC[C@@H]3NC(=O)[C@H]([C@@H](C)O)NC(=O)CNC(=O)CNC(=O)[C@H](C(C)C)NC(=O)[C@@H]4CSSC[C@H](NC(=O)[C@H]([C@@H](C)O)NC(=O)[C@H](CSSC[C@H](NC(=O)[C@H](C(C)C)NC(=O)[C@@H]5CCCN5C(=O)[C@H](CC(C)C)NC1=O)C(=O)NCC(=O)N[C@@H](CCC(=O)O)C(=O)N[C@@H]([C@@H](C)O)C(=O)N4)NC(=O)CNC(=O)[C@@H]1CCCN1C(=O)[C@H]([C@@H](C)O)NC(=O)[C@H](CC(N)=O)NC3=O)C(=O)N[C@@H](CO)C(=O)N[C@@H](Cc1c[nH]c3ccccc13)C(=O)N1CCC[C@H]1C(=O)N[C@@H](C(C)C)C(=O)N2 — remaining peptide (HPLC; ammonium bicarbonate; 180 µM, 7 days, pH 9.0, 25 °C, deamidation stability): 99.4 ± 0.9%
